# Measured values gathered from unrelated publications.
# Parts stem from different laboratories: compare values within a part only.

# Set 1
# Target: Histone acetyltransferase KAT6A, winged helix 2, GST fusion (KAT6A, Homo sapiens, UniProt Q92794, residues 85-181)
# Method: protein binding microarray
# Form: double-stranded DNA, one strand shown
# Medium: in vitro
# Concentration: not given
# Notes: 8-mer, flanks averaged, mean of 2 arrays, mostly near background
# Baseline: not given
# Direction: higher = stronger binding
# Target sequence (chain): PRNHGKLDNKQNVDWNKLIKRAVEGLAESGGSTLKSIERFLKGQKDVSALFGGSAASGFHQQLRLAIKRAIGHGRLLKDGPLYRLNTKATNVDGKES
Sequence,E-score
ACTTGAGC,-0.166
GGGCGTTA,0.103
ATTCGGTC,-0.0482
AGTAGCAA,0.176
TTAGTAAA,0.15
GCAAATAC,-0.00589
AAAGAACA,0.0585
CAAGTTGC,-0.0763
ATGTTCAC,-0.0865
CGTTATGA,-0.134
TGGTGTAA,-0.169
ATATAACA,0.108
CCGAAAGC,-0.0448
ACGAATTA,0.0184
CAAGCGGG,0.106
CAGGCGCG,0.139
ACCCGAAG,0.157
GGCCCACA,0.13

# Set 2
# Target: PABPC1L2, full length, GST fusion (mouse, UniProt A0ABA7IW68)
# Method: RNAcompete
# Form: RNA
# Medium: in vitro
# Concentration: 20 nM
# Notes: 7-mer, probes averaged, single round
# Baseline: mean of 7-mers
# Direction: higher = stronger binding
# Residues (chain): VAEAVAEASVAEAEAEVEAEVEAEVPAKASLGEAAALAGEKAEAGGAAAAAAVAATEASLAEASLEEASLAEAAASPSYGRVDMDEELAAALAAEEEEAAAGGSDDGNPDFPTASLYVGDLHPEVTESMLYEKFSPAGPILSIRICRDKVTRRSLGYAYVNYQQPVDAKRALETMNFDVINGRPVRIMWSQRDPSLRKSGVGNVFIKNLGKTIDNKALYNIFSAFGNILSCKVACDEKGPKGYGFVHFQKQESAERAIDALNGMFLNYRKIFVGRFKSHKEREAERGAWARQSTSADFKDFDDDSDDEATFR
Sequence,7-mer Z-score
UCUAAAA,3
CAAUGGG,0.0859
UACUUCG,-0.253
AGCUGCA,-0.0736
GAGCUGU,-0.255
GUCAACC,-0.166
UGCUCGA,-0.235
GCGGAAC,0.202
CGAUCUG,-0.217
UUGGGAA,0.229
AACACUC,0.111
CCCCCCU,-0.628
UAGAGGC,0.198
ACGUCCU,-0.237
GUGUGCU,-0.101
CGCUGGA,-0.0989
CGUACGG,0.00798
GCCGAUA,-0.24
GGUGUUG,-0.0645
UGCCGAC,-0.0953
CAUUGUC,-0.316
GGGGUAA,0.447
AAGGGCC,0.276
UAAUCAC,-0.238
CGAUACA,0.173

# Set 3
# Target: Centromere-binding protein 1, full length, His-tagged (CBF1, Saccharomyces cerevisiae, UniProt P17106, residues 1-351)
# UniProt P17106, sequence (whole entry, looked up): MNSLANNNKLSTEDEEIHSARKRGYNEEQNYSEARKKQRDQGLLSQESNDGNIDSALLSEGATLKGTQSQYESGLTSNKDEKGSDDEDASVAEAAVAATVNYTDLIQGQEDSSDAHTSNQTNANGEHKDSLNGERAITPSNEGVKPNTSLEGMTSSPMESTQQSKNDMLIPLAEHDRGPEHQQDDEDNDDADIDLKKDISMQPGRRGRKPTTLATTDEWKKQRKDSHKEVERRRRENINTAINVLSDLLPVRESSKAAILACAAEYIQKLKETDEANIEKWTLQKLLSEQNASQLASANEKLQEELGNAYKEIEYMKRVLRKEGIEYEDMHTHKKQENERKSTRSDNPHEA
# Method: competition protein-binding microarray
# Form: double-stranded DNA, one strand shown
# Medium: in vitro
# Concentration: 2 µM
# Notes: whole 60-bp probe, lowest competitor level
# Together with: Pho4 competitor, 0.05 µM
# Direction: higher = stronger binding
# Constant ends, left off below: … GTCTTGATTCGCTTGACGCTGCTG
Sequence,fluorescence intensity
AAAGCGGTAATTTGGCAAGTGGGTGCAGATATCTAT,87.3 a.u.
TCAAGAAATTTAGCTCGCGTGGCCGAATGGCAACGC,72.9 a.u.
TGCGCAACAACTTGAACTGTGGGTGTATGTCTAGAA,65.2 a.u.
CTTCCGCGCCGTATGTGTGTGTGTCCAAGGAGTTTG,70.3 a.u.
TCATAGAAGGAAAAGCACATGGTACCCAGGCAGAGT,117 a.u.
AAAGCGGTAATTTGGTCCGTGGGTGCAGATATCTAT,82.9 a.u.
GCACTTTCACTACTAGACGTGCTTTTAAAAAATTGT,91.8 a.u.
GGAAAAGGAAAGCCAAATGTGACGGACTCAGACTAC,67.5 a.u.
TGTTGTAATTTTTGGCATGTGCTATTGTATGAAGAT,231 a.u.
AGAAGGATGAATTGGAACGTGTTGGCAAGTCTAACC,87 a.u.
TGGAGGGTGTACTATCACATGCAGCCTTTGTTTCTA,229 a.u.
GGATCTTCTCTTCTTCACCGGCGAGATGGGCTGCGG,71.3 a.u.
GACCAGGAAAAAGATAGCGTGCAAAGCAGGACGATA,76.4 a.u.
AAAGCGGTAATTTGGAGGGTGGGTGCAGATATCTAT,79.4 a.u.
TCATAGTTGACTGCCCATGTGGCTAATCTCAGTCTC,82.1 a.u.
ATATCCCATCAACTACACGTGCCAGACCAGTTAAAG,1170 a.u.
TCATACACAATGCGACACATGAAAATACTACTCTTT,83.4 a.u.
GTCTTGTCTCATTGTCACGTGGGTGTCCCCACTTCA,3260 a.u.
CGTCCTAGTGATTGCGAGGTGGGTGCCATGAGGAAG,74.6 a.u.
ACAACAAAGTCGAGTCACGTTTCTCGCAATTATTAC,1340 a.u.
GTCCGGTTTCAGGAACACGTGTGGAAAATACAGGGC,1720 a.u.
AAATTACTAAGTTGTCACAAGACTTACCCCGTATGA,123 a.u.

# Set 4
# Target: Interferon regulatory factor 5, full length, phosphomimetic (IRF5, Homo sapiens, UniProt Q13568-2, residues 1-514, K96S/S451D/S453D/S456D/S462D)
# Method: protein-binding microarray
# Form: double-stranded DNA, one strand shown
# Medium: in vitro
# Concentration: 250 nM
# Notes: 60-bp whole probe
# Together with: salmon DNA 0.4 mg/ml
# Baseline: random background probes
# Direction: higher = stronger binding
# Constant ends, left off below: GCCTAGCAC … GTCTTGATTCGCTTGACGCTGCTG
Sequence,log fluorescence [z-score]
AGACATGACACCACTCCTGAGTGCTAG,-0.378
TCAATCATTGTTTTCAGACTGTGCTAG,0.915
ATAGGTATCCTACTGCTTTAGTGCTAG,0.0418
GACGATATCAGTCTCGAGACGTGCTAG,1.32
GACGATATTGGGACTGGAGACGTGCTA,0.229
GTCGGTATCGGGACTGGGGACGTGCTA,1.67
GACGATATCAGACTAGAGACGTGCTAG,0.325
CCCATTCTCAGCCCTGCGCATGTGCTA,0.0435
TTAGATATCAGTATCGATGAGTGCTAG,6.07
GACGGCCTGGACACTGGGGACGTGCTA,-0.657
GACGGAATCCTTCTCCTGACGTGCTAG,-0.26
GACGGACTGGACACGGGGGACGTGCTA,-0.468
TCAAACTTCTCCACTGAAACTGTGCTA,1.08
GACGGACTGCTTTTCCCGACGTGCTAG,-0.19
GACTAACTGGGGTTTCGAGACGTGCTA,1.22
TCATGTTTGATCTTGATACTGTGCTAG,0.167
GACGAAATCAGTTTCGAGACGTGCTAG,6.98
TCAATTCGTCATTTCACACTGTGCTAG,0.896
CTAGGTTTCCTTTTCCTTTAGTGCTAG,1.28
GGTACTCACCTCCAGGCTGAGTGCTAG,-0.492

# Set 5
# Target: RNA binding protein fox-1 homolog 2, RRM domain, GST-SBP tag (RBFOX2, Homo sapiens, UniProt O43251-10, residues 100-194)
# Method: RNA Bind-n-Seq
# Form: RNA
# Medium: in vitro
# Concentration: 365 nM
# Notes: natural RNA segment, single round, ends assumed
# Baseline: no-protein control
# Direction: higher = stronger binding
# Constant ends, left off below: GGGAGUUCUACAGUCCGACGAUC … UGGAAUUCUCGGGUGCCAA
# Construct (chain): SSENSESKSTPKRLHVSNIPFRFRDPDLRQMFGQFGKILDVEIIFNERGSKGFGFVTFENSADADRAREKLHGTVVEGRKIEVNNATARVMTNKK
Sequence,RBNS enrichment (R)
AUCUUUAAAUUAUAGAGCUCAGUAAUCAAUUUAAAGACAGUGUUAAGCUACUCACAGUGGCAAAUGCCUUUUAUCCUAGCACUCCUUAAGCAGAGGCAAACAGGUUUCUU,0.254
GCUGAGCUAGGCUACAGGGGAAAACUAUUGUGUUGUAAAGUUGCAUCGCUAUUUUAUAUUAAAAUGUAAUGAUCAGCAUCAUGAACAAUGAGCUCUUAGUGUUUUAUUUA,0.453
UCUCUCUGGGUUUGGACAUGAAAUGUAAGAAAAGAUUUUUCACUGGAGCAGCUCUCUUAAGGAGAAACAAAUCUAUUUAGAGAAACAGCUGGCCCUGCAAAUGUUUACAG,0.696
GGACUGAAGCAGCCUGGUUUUAGAGUGUAGCUGUAAGGGCAGUGCCCGUGUGUACAGUCUGUGGAGUUUAGCUUAACGGGCAGGGCCCACAUGUACAGUGUCUGUAUAUA,0.576
GUCACUUUGAAAUGUAACGAAUGGUACUACAACCAAUUCCAAGUUUUAAUUUUUAACACCAUGGCACCUUUUGCACAUAACAUGCUUUAGAUUAUAUAUUCCGCACUCAA,0.902
CCAGGGUCACCACCUGUCACAGCAAUACCUGGGACCAUGCUCUCCUGGGACUGUGAGGCUCCUUUUGACGUACUUUUGACAUCAGGCAGGUUUGGGAAGAAACAAAGCCA,1.21
UGGUUUUGUUUCUUUCAAAAUAAUUUUUUUUCAAAAGAAUAACAAGGGUUAGGCAAAUGGGGGACCUUCCUGUGUGCUCUUGGGGGUCUGCUCAGCAUCUGGAAAUUUGG,1.42
CAAAUGAGUCAGUAUUCUUGGGCAGAAGUGAACAUCCCAAGGAUUCAACAGGGAAUAAACAGGCUCUAGCACAUUAAGGAUGUGGCCUAGGCUGAGUGUUACCUUAAAAU,0.465
GGCUCAUUUGAAGAUUAAUGUUCCAUGCCUUUGUGGUCAAAGGGUCAGCACUUAACACAGGAAAAAACUAGGUGUUGUUUUGUUUUGUUAUUUUGGACAACAUAAAAUUC,0.935
UAAAAGGGGAAAGGCUAAUAGUAAAAUUUGACUUUCUGACUGCAUGCAACUGCUGGGCUUGCCUUCUGUUAGUGUGGUAGUACAUGACAGAGGCAUUAGACUAUUUUUUA,11.2
AUAACUAUCCUCCUCAUAUAAUACUAUUCUUUUUGACACCAUUUGAAGGAACCAAUAUUUGGACCUUAUUUUGAGGUUGUCUGUCUCGAAGAAAAAGAAAAUAAAAUGUA,0.633
CCGAAUGAUGUUUGGUAAUUGUAGAAAAAGUAAAUGUGUCUCAGGAUCACUAUUACUGCUGUUGCCACUAGUGAUUCCUAGGAAAUACAUAAUUGACUUUUUCCAACAAA,0.596

# Some of these lines once more (set 3):
Sequence,fluorescence intensity
TCATACACAATGCGACACATGAAAATACTACTCTTT,83.4 a.u.
AAATTACTAAGTTGTCACAAGACTTACCCCGTATGA,123 a.u.
AAAGCGGTAATTTGGTCCGTGGGTGCAGATATCTAT,82.9 a.u.
TGGAGGGTGTACTATCACATGCAGCCTTTGTTTCTA,229 a.u.
CTTCCGCGCCGTATGTGTGTGTGTCCAAGGAGTTTG,70.3 a.u.
TCATAGAAGGAAAAGCACATGGTACCCAGGCAGAGT,117 a.u.
GGATCTTCTCTTCTTCACCGGCGAGATGGGCTGCGG,71.3 a.u.
TGTTGTAATTTTTGGCATGTGCTATTGTATGAAGAT,231 a.u.
GCACTTTCACTACTAGACGTGCTTTTAAAAAATTGT,91.8 a.u.
CGTCCTAGTGATTGCGAGGTGGGTGCCATGAGGAAG,74.6 a.u.
ATATCCCATCAACTACACGTGCCAGACCAGTTAAAG,1170 a.u.
TCATAGTTGACTGCCCATGTGGCTAATCTCAGTCTC,82.1 a.u.
GGAAAAGGAAAGCCAAATGTGACGGACTCAGACTAC,67.5 a.u.
AAAGCGGTAATTTGGCAAGTGGGTGCAGATATCTAT,87.3 a.u.
TGCGCAACAACTTGAACTGTGGGTGTATGTCTAGAA,65.2 a.u.
